Published values from different studies.
Numbered parts are unrelated; each lists some results of a single study.

Block 1
Target: PABPC1L2, full length, GST fusion (mouse, UniProt A0ABA7IW68)
Method: RNAcompete
Form: RNA
Medium: in vitro
Concentration: 20 nM
Notes: 7-mer, probes averaged, single round
Relative to: mean of 7-mers
Direction: higher = stronger binding
Measurement: 7-mer Z-score
Target sequence (chain): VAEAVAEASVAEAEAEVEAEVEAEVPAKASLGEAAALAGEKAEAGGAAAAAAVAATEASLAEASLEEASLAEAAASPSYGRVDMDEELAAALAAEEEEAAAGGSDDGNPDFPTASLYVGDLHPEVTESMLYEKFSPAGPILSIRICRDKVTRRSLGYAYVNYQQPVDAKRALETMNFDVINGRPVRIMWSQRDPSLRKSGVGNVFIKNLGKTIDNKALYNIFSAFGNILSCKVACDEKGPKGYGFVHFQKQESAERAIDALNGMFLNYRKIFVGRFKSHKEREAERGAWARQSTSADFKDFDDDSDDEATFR
UAAUAAG: -0.0826
CGUGAUG: -0.211
AUCGUGC: -0.238
GAAACGU: -0.0627

Block 2
Target: Histone acetyltransferase KAT6A, winged helix 2, GST fusion (KAT6A, Homo sapiens, UniProt Q92794, residues 85-181)
Method: protein binding microarray
Form: double-stranded DNA, one strand shown
Medium: in vitro
Concentration: not given
Notes: 8-mer, flanks averaged, mean of 2 arrays, mostly near background
Relative to: not given
Direction: higher = stronger binding
Measurement: E-score
Target sequence (chain): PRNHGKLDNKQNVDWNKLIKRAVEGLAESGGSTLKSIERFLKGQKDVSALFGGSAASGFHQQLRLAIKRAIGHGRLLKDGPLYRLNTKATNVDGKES
AAAATCCA: 0.0627
TATGGTCA: -0.00078
CCTCAGGA: 0.00717
CTTTCTGA: 0.0775
AAGTATCC: -0.0764
CCATTAGG: -0.0538

Block 3
Target: Centromere-binding protein 1, full length, N-terminal tag (CBF1, Saccharomyces cerevisiae, UniProt P17106, residues 1-351)
UniProt P17106, sequence (whole entry, looked up): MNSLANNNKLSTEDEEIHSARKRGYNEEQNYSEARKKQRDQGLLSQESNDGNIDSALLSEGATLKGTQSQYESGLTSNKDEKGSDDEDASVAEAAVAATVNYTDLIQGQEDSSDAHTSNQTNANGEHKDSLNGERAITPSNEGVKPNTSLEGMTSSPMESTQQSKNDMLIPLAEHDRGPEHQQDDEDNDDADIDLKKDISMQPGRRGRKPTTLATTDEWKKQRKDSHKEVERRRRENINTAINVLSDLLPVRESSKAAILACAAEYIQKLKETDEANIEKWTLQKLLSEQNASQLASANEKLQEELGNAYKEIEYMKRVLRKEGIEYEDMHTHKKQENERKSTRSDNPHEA
Method: protein-binding microarray
Form: double-stranded DNA, one strand shown
Medium: in vitro
Concentration: 0.8 µM
Notes: whole 60-bp probe, no competitor
Direction: higher = stronger binding
Measurement: fluorescence intensity
Shared flanks, not repeated: … GTCTTGATTCGCTTGACGCTGCTG
GAAGTACGTTTGTACGAGGTGACGCGTTACTAATAG: 503 a.u.
CTAGCTTCCAAACATCAGCTTTCGTTTTAACATTTC: 513 a.u.
GAAAGAACCACTGACTTCGTGGTGCGTTCGTTTTAG: 519 a.u.
CCTAACTACTATATACTCGTGAAATAGCTTCGTACA: 561 a.u.
GAATGTTAAGATTACATCAGCACTAACAAACAATAG: 565 a.u.
TGTACGAAGCTATCACACACGTATATAGTAGTTAGG: 545 a.u.

Further values, each from its own experiment
PhoQ, residues 284 288 289 292 302 303 QWQEDG  fold induction (PhoP, residues 12 14 15 18 19 LHTVM (Escherichia coli, UniProt P23836); Sort-seq, measured: YFP reporter; E. coli; PhoQ-PhoP variant library, added: 10 µM Mg2+; relative to: high Mg2+ state, higher = stronger signaling): 15.1

A few entries again (block 2):
CCTCAGGA: 0.00717
